Assay results gathered from unrelated publications.
Every numbered part comes from another study and shows a few of its results, in no order. Changes are numbered by the printed parent chain.

Block 1 — technique: protein binding microarray; form: double-stranded DNA, one strand shown; sample: in vitro; tested at: not given; relative to: not given; direction: higher = stronger binding; measurement: E-score
Target: Histone acetyltransferase KAT6A, winged helix 2, GST fusion (KAT6A, Homo sapiens, UniProt Q92794, residues 85-181)
Notes: 8-mer, flanks averaged, mean of 2 arrays, mostly near background
Construct (chain): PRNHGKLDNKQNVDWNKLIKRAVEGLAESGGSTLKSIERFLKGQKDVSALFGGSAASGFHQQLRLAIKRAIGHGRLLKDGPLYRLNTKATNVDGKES
CGACCGTA: -0.212
GACGTCTC: -0.0325
AATCCGAC: -0.0544
CGCAACAA: 0.0883
ACCCGGAC: 0.0294
GGTAGTAC: -0.24
CACATAAC: -0.0439
ATCGGTAC: -0.0643

Block 2 — technique: protein-binding microarray; form: double-stranded DNA, one strand shown; sample: in vitro; tested at: 2540 nM top; notes: 60-bp whole probe; together with: salmon DNA 0.4 mg/ml; relative to: random background probes; direction: higher = stronger binding; measurement: fitted relative affinity; constant ends, left off below: GCCTAGCAC … GTCTTGATTCGCTTGACGCTGCTG
Target: Interferon regulatory factor 3, full length, phosphomimetic (IRF3, Homo sapiens, UniProt Q14653, residues 1-427, S386D/S396D/S398D/S402D/T404D/S405D)
Construct (chain): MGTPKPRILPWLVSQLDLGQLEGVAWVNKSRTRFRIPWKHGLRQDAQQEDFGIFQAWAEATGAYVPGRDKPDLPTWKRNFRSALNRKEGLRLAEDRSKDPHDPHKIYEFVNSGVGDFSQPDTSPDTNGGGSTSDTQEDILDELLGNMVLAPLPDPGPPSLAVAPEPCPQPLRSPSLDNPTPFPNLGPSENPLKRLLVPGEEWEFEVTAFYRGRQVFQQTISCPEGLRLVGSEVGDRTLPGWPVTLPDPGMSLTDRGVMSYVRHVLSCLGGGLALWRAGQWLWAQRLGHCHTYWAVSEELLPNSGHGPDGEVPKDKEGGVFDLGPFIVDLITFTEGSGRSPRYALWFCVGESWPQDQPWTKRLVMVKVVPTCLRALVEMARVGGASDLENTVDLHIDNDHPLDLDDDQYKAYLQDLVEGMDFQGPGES
TTAGGTCTCCTTCTCCTTTGGTGCTAG: 3.98 z-score
TTAGCTTTCGGGACTGGGTTAGTGCTA: 1.37 z-score
GACGGTATCCGGTTTCGGGACGTGCTA: 3.99 z-score
TTAGATTTCAGTCTCGATTTGTGCTAG: 2.64 z-score
GGGCCTAGCCATTATGAGTCTGTGCTA: -0.933 z-score
AATTTGAGAACGGAAACCAAGTGCTAG: 3.23 z-score
GACGGTCTCGTACTGCTGACGTGCTAG: 0.199 z-score

Block 3 — target: CCNB1, cyclin fold, Cln2 fusion (human); technique: yeast growth competition, sequencing; sample: yeast; notes: strong parent motif; relative to: not given; direction: higher = stronger binding; measurement: normalised enrichment score
Starting sequence: PKN2 docking peptide (human); VSAVRKLDFSDTM
VSAVGKLDFSDTM [R5G]: 0.281
VSAVRKLDFSWTM [D11W]: 1.14
VKAVRKLDFSDTM [S2K]: 2.37
VSAVRKLDFSVTM [D11V]: 2.71
VSAVRKLDFRDTM [S10R]: 2.62
VFAVRKLDFSDTM [S2F]: 3.41

Other studies, line by line
PhoQ, residues 284 288 289 292 302 303 NLMGRA  fold induction (PhoP, residues 12 14 15 18 19 STHWV (Escherichia coli, UniProt P23836); Sort-seq, item: YFP reporter; E. coli; PhoQ-PhoP variant library, together with: 10 µM Mg2+; relative to: high Mg2+ state, higher = stronger signaling): 0.668

Some of these lines once more (block 2):
GACGGTATCCGGTTTCGGGACGTGCTA: 3.99 z-score
